Values quoted from earlier work, collected from citations in different studies.
Numbered parts are unrelated; values within a part may stem from several laboratories. Numbers after ± are the reported error.

Chains of the proteins cited; added tags and fusions are not shown. Residues count along the entry.
UniProt P17787, 26-502 limits assumed: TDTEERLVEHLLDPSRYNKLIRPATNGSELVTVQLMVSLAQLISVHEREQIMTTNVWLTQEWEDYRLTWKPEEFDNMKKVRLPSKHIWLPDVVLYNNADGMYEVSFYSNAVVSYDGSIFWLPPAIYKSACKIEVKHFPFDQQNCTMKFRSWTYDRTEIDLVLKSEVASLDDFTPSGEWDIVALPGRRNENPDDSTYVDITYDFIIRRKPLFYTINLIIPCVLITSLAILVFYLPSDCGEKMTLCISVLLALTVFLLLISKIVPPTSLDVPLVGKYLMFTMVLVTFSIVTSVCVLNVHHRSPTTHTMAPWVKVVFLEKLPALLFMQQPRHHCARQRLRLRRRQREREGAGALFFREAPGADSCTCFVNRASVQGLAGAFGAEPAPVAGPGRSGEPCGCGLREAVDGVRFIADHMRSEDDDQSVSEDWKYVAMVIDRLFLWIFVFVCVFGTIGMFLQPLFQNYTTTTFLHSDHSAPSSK
UniProt P43681, 29-627 limits assumed: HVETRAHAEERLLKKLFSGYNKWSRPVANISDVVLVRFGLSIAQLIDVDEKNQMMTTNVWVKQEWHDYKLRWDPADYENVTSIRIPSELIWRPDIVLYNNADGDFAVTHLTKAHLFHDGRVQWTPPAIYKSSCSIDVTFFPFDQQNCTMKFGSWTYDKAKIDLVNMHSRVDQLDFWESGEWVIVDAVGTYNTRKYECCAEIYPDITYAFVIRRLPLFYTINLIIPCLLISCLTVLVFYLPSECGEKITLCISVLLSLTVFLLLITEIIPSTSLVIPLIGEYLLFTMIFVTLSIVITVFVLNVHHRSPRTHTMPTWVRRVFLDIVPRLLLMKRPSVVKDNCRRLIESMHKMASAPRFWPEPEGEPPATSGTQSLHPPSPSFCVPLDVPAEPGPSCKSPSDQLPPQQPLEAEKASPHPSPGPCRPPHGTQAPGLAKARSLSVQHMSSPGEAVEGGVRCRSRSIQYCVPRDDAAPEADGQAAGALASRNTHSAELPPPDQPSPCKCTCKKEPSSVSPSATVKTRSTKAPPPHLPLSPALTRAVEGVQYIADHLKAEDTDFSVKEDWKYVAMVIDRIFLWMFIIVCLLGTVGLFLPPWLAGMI
UniProt P09884, whole entry: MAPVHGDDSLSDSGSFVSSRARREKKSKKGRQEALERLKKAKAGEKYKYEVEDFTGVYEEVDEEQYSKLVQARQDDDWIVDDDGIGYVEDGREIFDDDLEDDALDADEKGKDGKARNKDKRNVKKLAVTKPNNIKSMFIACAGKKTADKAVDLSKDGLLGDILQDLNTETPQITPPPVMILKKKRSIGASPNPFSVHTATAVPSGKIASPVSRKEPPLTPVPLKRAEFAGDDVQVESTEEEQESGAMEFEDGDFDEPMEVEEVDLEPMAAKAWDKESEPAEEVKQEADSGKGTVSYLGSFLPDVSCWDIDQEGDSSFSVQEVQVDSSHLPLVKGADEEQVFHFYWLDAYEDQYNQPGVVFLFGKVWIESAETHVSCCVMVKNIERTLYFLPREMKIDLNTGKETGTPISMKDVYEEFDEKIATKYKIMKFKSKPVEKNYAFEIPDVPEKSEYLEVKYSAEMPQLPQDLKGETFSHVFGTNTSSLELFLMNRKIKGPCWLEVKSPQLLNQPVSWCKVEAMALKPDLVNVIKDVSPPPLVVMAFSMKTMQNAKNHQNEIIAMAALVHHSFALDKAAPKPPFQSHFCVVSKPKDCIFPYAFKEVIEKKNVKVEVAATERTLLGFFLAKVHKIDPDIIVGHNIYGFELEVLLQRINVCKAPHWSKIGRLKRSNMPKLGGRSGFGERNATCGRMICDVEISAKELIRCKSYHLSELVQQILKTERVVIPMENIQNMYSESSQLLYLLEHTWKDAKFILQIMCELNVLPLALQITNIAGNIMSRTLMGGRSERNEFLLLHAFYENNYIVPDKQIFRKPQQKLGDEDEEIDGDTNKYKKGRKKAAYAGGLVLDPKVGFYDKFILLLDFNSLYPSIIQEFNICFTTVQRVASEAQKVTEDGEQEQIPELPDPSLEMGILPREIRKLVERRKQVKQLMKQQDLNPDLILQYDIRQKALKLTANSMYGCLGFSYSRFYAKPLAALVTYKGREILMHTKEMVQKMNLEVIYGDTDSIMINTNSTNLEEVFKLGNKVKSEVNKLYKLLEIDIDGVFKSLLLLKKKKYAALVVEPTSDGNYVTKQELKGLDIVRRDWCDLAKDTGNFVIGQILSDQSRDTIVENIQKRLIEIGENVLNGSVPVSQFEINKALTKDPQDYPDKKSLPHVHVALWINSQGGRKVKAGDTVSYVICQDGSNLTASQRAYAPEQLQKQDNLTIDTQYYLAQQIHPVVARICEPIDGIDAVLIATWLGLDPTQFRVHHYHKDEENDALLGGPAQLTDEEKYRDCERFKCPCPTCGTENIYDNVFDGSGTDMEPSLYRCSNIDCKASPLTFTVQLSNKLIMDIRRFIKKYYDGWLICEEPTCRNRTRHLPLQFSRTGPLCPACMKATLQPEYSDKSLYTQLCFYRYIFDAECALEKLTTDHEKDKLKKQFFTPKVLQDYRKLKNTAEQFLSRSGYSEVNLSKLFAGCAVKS
UniProt P0DOF5, whole entry V27A: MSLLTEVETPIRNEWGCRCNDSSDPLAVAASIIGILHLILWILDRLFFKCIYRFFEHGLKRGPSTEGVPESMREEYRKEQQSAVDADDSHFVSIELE
UniProt P08253, 110-660 limits assumed: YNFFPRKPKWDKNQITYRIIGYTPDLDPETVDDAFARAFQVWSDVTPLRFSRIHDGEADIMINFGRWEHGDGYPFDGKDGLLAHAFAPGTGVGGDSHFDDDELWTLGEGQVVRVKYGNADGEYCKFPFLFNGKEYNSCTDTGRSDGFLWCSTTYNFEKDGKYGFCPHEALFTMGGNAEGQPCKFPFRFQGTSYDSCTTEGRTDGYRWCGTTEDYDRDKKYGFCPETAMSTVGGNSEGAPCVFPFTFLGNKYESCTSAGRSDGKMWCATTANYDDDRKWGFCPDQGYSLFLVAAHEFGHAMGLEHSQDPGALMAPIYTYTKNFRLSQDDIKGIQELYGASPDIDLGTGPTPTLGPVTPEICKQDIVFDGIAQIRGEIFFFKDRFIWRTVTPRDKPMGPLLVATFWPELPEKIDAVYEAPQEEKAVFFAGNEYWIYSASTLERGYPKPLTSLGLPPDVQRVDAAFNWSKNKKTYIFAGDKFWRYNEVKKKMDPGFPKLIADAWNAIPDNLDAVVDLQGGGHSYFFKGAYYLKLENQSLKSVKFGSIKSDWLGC

Block 1
Target: HLA class I histocompatibility antigen, A alpha chain, allele A*26:03 (Homo sapiens, UniProt P04439)
Compound	IC50 [µM]
CC[C@H](C)[C@H](NC(=O)[C@H](Cc1cnc[nH]1)NC(=O)[C@@H]1CCCN1C(=O)[C@H](CCCCN)NC(=O)[C@H](CC(C)C)NC(=O)[C@H](Cc1ccc(O)cc1)NC(=O)[C@@H](N)CO)C(=O)N[C@@H](Cc1ccccc1)C(=O)N[C@@H](CCC(=O)O)C(=O)O	> 20
CC[C@H](C)[C@H](NC(=O)[C@H](CCC(=O)O)NC(=O)CN)C(=O)N[C@@H](Cc1ccccc1)C(=O)NCC(=O)N[C@@H](CC(C)C)C(=O)N[C@@H](CC(C)C)C(=O)NCC(=O)N1CCC[C@H]1C(=O)O	> 20
NCC(=O)N[C@@H](Cc1c[nH]c2ccccc12)C(=O)N1CCC[C@H]1C(=O)N[C@@H](CC(=O)O)C(=O)N[C@@H](CC(N)=O)C(=O)N[C@@H](Cc1ccc(O)cc1)C(=O)N[C@@H](CS)C(=O)N[C@@H](CCC(=O)O)C(=O)N[C@@H](Cc1c[nH]c2ccccc12)C(=O)O	> 20
CC(C)C[C@H](N)C(=O)N[C@H](C(=O)NCC(=O)NCC(=O)N[C@@H](CCCNC(=N)N)C(=O)N[C@@H](CCC(=O)O)C(=O)N[C@@H](Cc1c[nH]c2ccccc12)C(=O)N[C@@H](CO)C(=O)N[C@@H](Cc1ccc(O)cc1)C(=O)O)C(C)C	> 20
CC[C@H](C)[C@H](NC(=O)[C@H](CCC(=O)O)NC(=O)[C@H](CCC(N)=O)NC(=O)[C@H](Cc1cnc[nH]1)NC(=O)[C@@H](NC(=O)[C@H](CS)NC(=O)[C@H](Cc1ccc(O)cc1)NC(=O)[C@H](CC(C)C)NC(=O)[C@@H](N)[C@@H](C)O)C(C)C)C(=O)O	> 20
CC[C@H](C)[C@H](NC(=O)CNC(=O)[C@H](CCSC)NC(=O)[C@H](CCC(=O)O)NC(=O)[C@@H](N)CCCNC(=N)N)C(=O)N[C@H](C(=O)N[C@@H](CC(=O)O)C(=O)N[C@@H](CC(C)C)C(=O)N[C@@H](CC(C)C)C(=O)O)C(C)C	> 20

Other studies, line by line
SMILES	tested on	test	test system	setting	scale	endpoint	result
COCCC1CC1c1cncc(OC[C@@H]2CCN2)c1 (stereo partly drawn)	Neuronal acetylcholine receptor; alpha4/beta2, high-sensitivity stoichiometry (Homo sapiens, UniProt P17787+P43681)	ion flux, agonist	–	high-sensitivity α4β2	relative to: carbamylcholine	efficacy	60%
O=C(Nc1cccc(C2=NCCN2)c1)c1ccc(-c2ccc(C(=O)Nc3cccc(C4=NCCN4)c3)cc2)cc1	UPPS, Staphylococcus aureus	enzyme activity	–	–	–	IC50	~0.1 µM
Cc1cn([C@@H]2CC[C@H](OC(C(=O)O)P(=O)(O)O)C2)c(=O)[nH]c1=O (relative stereo)	POLA1 (Homo sapiens, UniProt P09884)	enzyme activity, inhibitor	–	–	–	IC50	229 µM
C1CCC2(CC1)CCNCC2	Matrix protein 2 (Influenza A virus, UniProt P0DOF5, V27A)	–	–	concentration not given	–	activity against V27A mutant	no effect
CC(C)C[C@H](NC(=O)[C@@H]1CCCN1)C(=O)NCC(=O)N[C@H](C(=O)N[C@@H](CCCNC(=N)N)C(=O)O)C(C)C	MMP2 (Homo sapiens, UniProt P08253)	substrate	–	–	–	kcat/Km	14000 M⁻¹ s⁻¹
Cc1cc(O)cc(C)c1C[C@H](N)C(=O)N[C@H](CCCNC(=N)N)C(=O)N[C@@H](Cc1ccccc1)C(=O)N[C@@H](CCCCN)C(=O)NCCNC(=O)[C@H](Cc1ccccc1)NC(=O)[C@H](CC1CCCCC1)NC[C@@H]1Cc2ccccc2CN1C(=O)[C@@H](N)Cc1ccc(O)cc1	–	muscle contraction, agonist	guinea pig ileum	–	–	IC50	0.0665 ± 0.0054 µM

Excerpt of the above (other studies, line by line):
SMILES	tested on	test	test system	setting	scale	endpoint	result
COCCC1CC1c1cncc(OC[C@@H]2CCN2)c1 (stereo partly drawn)	Neuronal acetylcholine receptor; alpha4/beta2, high-sensitivity stoichiometry (Homo sapiens, UniProt P17787+P43681)	ion flux, agonist	–	high-sensitivity α4β2	relative to: carbamylcholine	efficacy	60%
O=C(Nc1cccc(C2=NCCN2)c1)c1ccc(-c2ccc(C(=O)Nc3cccc(C4=NCCN4)c3)cc2)cc1	UPPS, Staphylococcus aureus	enzyme activity	–	–	–	IC50	~0.1 µM
